# Results gathered from unrelated publications.
# Numbered parts are unrelated; each lists some results of a single study.

# Sample 1
# Target: Phosphate system positive regulatory protein PHO4, full length, GST-tagged (PHO4, Saccharomyces cerevisiae, UniProt P07270, residues 1-312)
# Method: competition protein-binding microarray
# Molecule type: double-stranded DNA, one strand shown
# Sample: in vitro
# Concentration: 2 µM
# Setting: whole 60-bp probe, lowest competitor level
# With: Cbf1 competitor, 0.05 µM
# Reading: higher = stronger binding
# All sequences stand within: … GTCTTGATTCGCTTGACGCTGCTG
# Residues (chain): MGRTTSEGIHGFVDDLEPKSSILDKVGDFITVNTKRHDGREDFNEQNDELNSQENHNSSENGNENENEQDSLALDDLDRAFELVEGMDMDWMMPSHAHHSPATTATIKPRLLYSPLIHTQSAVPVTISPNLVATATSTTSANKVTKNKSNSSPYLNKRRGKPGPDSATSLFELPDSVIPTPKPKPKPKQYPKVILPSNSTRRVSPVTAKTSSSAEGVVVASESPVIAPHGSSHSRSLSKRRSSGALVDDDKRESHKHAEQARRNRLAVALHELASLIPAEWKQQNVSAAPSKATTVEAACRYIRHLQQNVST
Sequence,fluorescence intensity [a.u.]
GGTATGGCGCCGGATTGGGTTTTTTCATCAAGAATT,3140
TAGTGTTAAAGCAACACCGTGATGGCCTTGGTGGTG,5900
TGCGCAACAACTTTTCACGTGTTGTTATGTCTAGAA,13400
ATACTACCACACTTTCATGTGATGAAAGGTGAAACT,5780
ACTGGCTCTATTTTGCACGCAACTTGTGCAGCTTTA,6310
TGAAAATACCATTTGGGAAGGTAACAAAATCATACA,3040
CTTCTGTAAATTTTTCACGTGTTGTGAAGCGCCCCG,13000

# Sample 2
# Target: Sal-like protein 4, full length isoform A (SALL4, Homo sapiens, UniProt Q9UJQ4, residues 1-1053)
# UniProt Q9UJQ4, sequence (whole entry, looked up): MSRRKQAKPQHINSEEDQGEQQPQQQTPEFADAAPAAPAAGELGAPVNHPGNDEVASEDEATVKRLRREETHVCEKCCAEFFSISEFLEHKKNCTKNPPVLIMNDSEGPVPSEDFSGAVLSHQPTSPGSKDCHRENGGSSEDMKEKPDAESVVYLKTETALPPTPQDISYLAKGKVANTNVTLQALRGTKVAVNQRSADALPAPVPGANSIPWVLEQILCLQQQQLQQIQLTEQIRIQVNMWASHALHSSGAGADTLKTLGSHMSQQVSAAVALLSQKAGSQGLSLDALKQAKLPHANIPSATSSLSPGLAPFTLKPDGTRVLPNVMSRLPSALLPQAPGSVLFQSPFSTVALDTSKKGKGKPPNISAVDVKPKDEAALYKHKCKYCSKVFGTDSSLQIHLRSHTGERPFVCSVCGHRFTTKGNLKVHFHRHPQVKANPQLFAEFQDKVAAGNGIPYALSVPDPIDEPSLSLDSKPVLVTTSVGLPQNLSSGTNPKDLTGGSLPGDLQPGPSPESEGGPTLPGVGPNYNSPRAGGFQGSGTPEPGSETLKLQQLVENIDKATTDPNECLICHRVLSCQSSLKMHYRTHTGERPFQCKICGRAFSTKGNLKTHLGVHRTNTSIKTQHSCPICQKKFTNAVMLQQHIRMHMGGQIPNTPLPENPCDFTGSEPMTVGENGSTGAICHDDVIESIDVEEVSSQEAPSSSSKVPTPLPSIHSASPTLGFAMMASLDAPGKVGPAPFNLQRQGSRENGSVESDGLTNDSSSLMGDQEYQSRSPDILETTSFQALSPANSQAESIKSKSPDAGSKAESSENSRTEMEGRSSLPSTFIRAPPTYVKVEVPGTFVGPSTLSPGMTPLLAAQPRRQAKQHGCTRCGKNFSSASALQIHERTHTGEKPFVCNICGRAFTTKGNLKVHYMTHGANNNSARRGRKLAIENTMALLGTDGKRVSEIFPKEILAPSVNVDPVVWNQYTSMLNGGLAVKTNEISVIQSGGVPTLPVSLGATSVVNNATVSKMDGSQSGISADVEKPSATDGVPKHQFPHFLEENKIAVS
# Method: universal PBM
# Molecule type: double-stranded DNA, one strand shown
# Sample: in vitro
# Concentration: 600 nM
# Setting: 8-mer, flanks averaged, mean of replicates
# Reading: higher = stronger binding
Sequence,E-score
TAAACATA,0.351
ATGGGCCC,-0.34
GAGACGGC,-0.256
CTTGTGAC,-0.0131
CATAGACC,-0.0395
AAGGGATG,-0.0583
AGAAAATG,0.133
TCGTGAGA,-0.114

# Sample 3
# Target: Histone acetyltransferase KAT6A, winged helix 1, GST fusion (KAT6A, Homo sapiens, UniProt Q92794, residues 1-85)
# Method: protein binding microarray
# Molecule type: double-stranded DNA, one strand shown
# Sample: in vitro
# Concentration: not given
# Setting: 8-mer, flanks averaged, mean of 2 arrays, mostly near background
# Reference: not given
# Reading: higher = stronger binding
# Target sequence (chain): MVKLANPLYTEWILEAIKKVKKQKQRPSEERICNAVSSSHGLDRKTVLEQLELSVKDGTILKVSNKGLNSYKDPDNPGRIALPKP
Sequence,E-score
GGAGTGAC,0.0262
CGATGCCC,0.0759
ACGAATTC,-0.183
ACACGGAT,0.202
ACCATCAA,-0.112
AAGGATAC,-0.134
CCGTTTCA,0.16
AACGGATG,-0.0182
ACAGCTAC,-0.216

# Further values, each from its own experiment
Molecule,target,assay,test system,setting,how to read,quantity,value
"PhoQ, residues 284 288 289 292 302 303 ALSMDL","PhoP, residues 12 14 15 18 19 MHTVL (Escherichia coli, UniProt P23836)","Sort-seq, item: YFP reporter",E. coli,"PhoQ-PhoP variant library, with: 10 µM Mg2+","reference: high Mg2+ state, higher = stronger signaling",fold induction,4.67
